{"data": "Measured values pooled from the literature", "HTR3A": "5-hydroxytryptamine receptor 3A (HTR3A, Homo sapiens, UniProt P46098)", "CGAS catalytic domain; with DNA": "Cyclic GMP-AMP synthase, catalytic domain; with DNA (CGAS, Homo sapiens, UniProt Q8N884)", "note": "Several values in a cell are separate wells, animals, samples, runs or records. ± marks the error that the study gave."}
{"SMILES": "COc1ccc2c(c1)C(=O)N(CCN1CCN(c3ccccc3OC)CC1)C2", "target": "HTR3A", "test": "radioligand binding", "setting": "concentration not given, with: [3H]GR65630", "inhibition": "-19.5%"}
{"SMILES": "CCN1CCN(Cc2ccc(NC(=O)c3ccc(C)c(Oc4ccnc5[nH]ccc45)c3)cc2C(F)(F)F)CC1", "target": "Phosphatidylinositol 5-phosphate 4-kinase type-2 gamma (PIP4K2C, Homo sapiens, UniProt Q8TBX8)", "system": "A-375", "setting": "concentration not given", "inhibition": "-13.3%"}
{"SMILES": "CC[C@@H]1[C@H](F)C(=O)N[C@@H]1COc1nccc2cc(C(N)=O)c(OC)cc12", "target": "Dual specificity mitogen-activated protein kinase kinase 6 (MAP2K6, Homo sapiens, UniProt P52564)", "test": "ATP-site probe binding, ActivX profiling", "system": "THP-1 cell lysate", "setting": "0.01 mM, Lys2 site", "inhibition": "7.4%"}
{"SMILES": "O=C(O)c1cc(O)c2c(c1)C(=O)c1cc(O)cc(O)c1C2=O", "target": "Vasopressin V1a receptor (AVPR1A, Homo sapiens, UniProt P37288)", "test": "calcium mobilization, antagonist, fluorimetry", "setting": "50 µM, with: 10 nM vasopressin", "inhibition": "0.85 ± 10.7%"}
{"SMILES": "Clc1cccc(OC[C@@H]2CN(CCN3CCc4ccccc43)CCO2)c1", "target": "HTR3A", "test": "radioligand binding", "setting": "concentration not given, with: [3H]GR65630", "inhibition": "8.4%"}
{"SMILES": "CC/C(=N\\NC(=O)NCc1cccc(O)c1)c1ccc(O)c(C)c1O", "target": "Casein kinase II subunit alpha', with CK2 beta (CSNK2A2, Homo sapiens, UniProt P19784)", "test": "kinase activity", "setting": "0.1 µM", "inhibition": "-1.3%"}
{"SMILES": "C[C@@H]1CCO[C@H]2Cn3cc(C(=O)NCc4ccc(F)cc4F)c(=O)c(O)c3C(=O)N12", "target": "Solute carrier family 22 member 3 (SLC22A3, Homo sapiens, UniProt O75751)", "test": "transport", "system": "MDCK-II, transfected", "setting": "30 µM, with: MPP+ 2 µM", "inhibition": "-1.2%"}
{"SMILES": "OO", "target": "Histone acetyltransferase GCN5, with Ada2 and Ada3 (Saccharomyces cerevisiae S288c, UniProt Q03330)", "test": "enzyme activity, inhibitor", "setting": "250 µM, Gcn5-Ada2-Ada3 complex, no DTT, with: [3H]acetyl-CoA", "inhibition": "8 ± 9%"}
{"SMILES": "COc1ccc(C2=N[C@@H](c3ccc(Cl)cc3)[C@@H](c3ccc(Cl)cc3)N2C(=O)N2CCNC(=O)C2)c(OC(C)C)c1", "target": "Trypanothione synthetase (Trypanosoma brucei brucei, UniProt Q586P2)", "test": "enzyme activity, inhibitor, phosphate release", "setting": "25 µM", "inhibition": "39.8 ± 5.2%"}
{"SMILES": "Cc1nn(-c2nc3ccccc3[nH]2)c(O)c1C(c1ccccn1)c1c(C)nn(-c2nc3ccccc3[nH]2)c1O", "target": "CGAS catalytic domain; with DNA", "test": "liquid-liquid phase separation, inhibitor", "setting": "6.25 µM", "inhibition": "44.8%"}
{"SMILES": "Cc1cc2c(cc1N1C(=O)c3cccc4c(CCCO)ccc(c34)C1=O)n(C)c(=O)n2C (racemic)", "target": "Transcription intermediary factor 1-alpha, PHD-bromodomain (TRIM24, Homo sapiens, UniProt O15164)", "test": "binding, BROMOscan", "setting": "100 nM, PHD-bromodomain", "inhibition": "81%"}
{"SMILES": "Cc1nn(-c2nc3c(F)cc(F)cc3s2)c(O)c1C(c1ccccc1C(=O)O)c1c(C)nn(-c2nc3c(F)cc(F)cc3s2)c1O", "target": "CGAS catalytic domain; with DNA", "test": "cGAS phase separation, inhibitor", "setting": "10 µM", "inhibition": "101%"}
{"SMILES": "COc1cc(C(=O)NS(=O)(=O)c2ccccc2C)ccc1Cc1cn(C)c2ccc(NC(=O)OC3CCCC3)cc12", "target": "LRRC8A/LRRC8C (Homo sapiens, UniProt Q8IWT6+Q8TDW0, L134K/L136K)", "test": "ion current, whole-cell patch clamp", "system": "HCT LRRC8-/- cells", "setting": "1 µM, +100 mV, L134K/L136K heteromers", "inhibition": "24.3% and 9.21% and 10.1% and 47.3% and 23.4%"}
{"SMILES": "COc1c(C#N)ccnc1N1C2CCC1CN(C(=O)c1cccnc1-n1cccn1)C2", "target": "GABA-gated chloride channel", "test": "binding", "setting": "10 µM", "inhibition": "9.6%"}
{"SMILES": "C[C@H]1[C@H](OC(=O)CCC(=O)O)O[C@@H]2O[C@@]3(C)CC[C@H]4[C@H](C)CC[C@@H]1[C@@]24OO3", "target": "Non-structural polyprotein pORF1, RNA-dependent RNA polymerase (Hepatitis E virus genotype 1, UniProt P33424)", "test": "polymerase activity", "setting": "4.8 µM", "inhibition": "38.4%"}
{"SMILES": "O=C(Nc1cccc2c(=O)cc(-c3nnn[nH]3)oc12)c1ccc(OCCCCc2ccccc2)cc1", "target": "Volume-regulated anion channel subunit LRRC8C, part LRRC8A IL1 chimera (LRRC8C, Homo sapiens, UniProt Q8TDW0, L136K)", "test": "ion current, inhibitor, whole-cell patch clamp", "system": "HCT LRRC8-/- cells", "setting": "3 µM, -100 mV", "inhibition": "85% and 75.2% and 90.7% and 77.7%"}
{"SMILES": "CN1CCN(c2cc(-c3ccncc3)c(-c3ccc4ccccc4c3)nn2)CC1", "target": "Gastrin-releasing peptide receptor (GRPR, Homo sapiens, UniProt P30550)", "test": "antagonist, FLIPR", "setting": "10 µM", "inhibition": "10.9%"}
{"SMILES": "N[C@@H](CCC(=O)O)C(=O)O", "target": "rat Glutamate receptor", "test": "binding", "setting": "1 × 10 µM", "inhibition": "96%"}
{"SMILES": "Clc1cncc(OC[C@@H]2CN(CCN3CCc4ccccc43)CCO2)c1", "target": "HTR3A", "test": "radioligand binding", "setting": "concentration not given, with: [3H]GR65630", "inhibition": "3.6%"}
{"SMILES": "C#Cc1cc(-c2cc(Nc3nc(N[C@@H](C)c4ccc(F)cn4)ncc3Cl)n[nH]2)ccc1C=O", "target": "High affinity nerve growth factor receptor (NTRK1, Homo sapiens, UniProt P04629, G667C)", "test": "enzyme activity, inhibitor", "setting": "0.2 µM", "inhibition": "101%"}
{"SMILES": "CNc1ccc(-c2nc3ccc(O)cc3s2)cc1", "target": "Amyloid-beta precursor protein, amyloid-beta (APP, Homo sapiens, UniProt P05067)", "test": "binding, competition binding", "system": "amyloid-beta aggregates", "setting": "2000 nM, with: tritiated amyloid ligand", "inhibition": "88.4% and 82%"}
{"SMILES": "COc1ccccc1N1CCN(CCCCN2CCc3ccccc3C2=O)CC1", "target": "HTR3A", "test": "radioligand binding", "setting": "concentration not given, with: [3H]GR65630", "inhibition": "27.1%"}
{"SMILES": "CCCCCCCCN(CCC(=O)Nc1ccccc1)C(=O)[C@H]1CCCN1", "target": "Protein-S-isoprenylcysteine O-methyltransferase (Homo sapiens, UniProt O60725)", "test": "enzyme activity", "system": "Sf9 membranes", "setting": "50 µM, with: biotin-farnesyl-L-cysteine", "inhibition": "61%"}
{"SMILES": "COc1ccc(F)cc1C(=O)NCc1ccc(-c2nn([C@@H](C)C(F)(F)F)c(N)c2C(N)=O)cc1", "target": "Tyrosine-protein kinase BTK (BTK, Homo sapiens, UniProt Q06187)", "test": "probe binding, competitive chemoproteomics", "system": "human PBMCs", "setting": "1 µM", "inhibition": "> 90%"}
{"SMILES": "Cc1ccnc(C)c1OC[C@H]1CN(CCN2CCc3ccccc32)CCO1", "target": "HTR3A", "test": "radioligand binding", "setting": "concentration not given, with: [3H]GR65630", "inhibition": "-12.9%"}
{"SMILES": "Cc1nn(-c2nc3ccccc3[nH]2)c(O)c1C(c1ccccc1C(=O)O)c1c(C)nn(-c2nc3ccccc3[nH]2)c1O", "target": "CGAS catalytic domain; with DNA", "test": "liquid-liquid phase separation, inhibitor", "setting": "2.5 µM", "inhibition": "87.2%"}
{"SMILES": "COc1cc(-c2cc(C(C)=O)n3ccccc23)cc(OC)c1Cn1ccnc1", "target": "Transcription intermediary factor 1-alpha (TRIM24, Homo sapiens, UniProt O15164)", "setting": "1 µM", "inhibition": "-3.78%"}
{"SMILES": "CS(=O)(=O)Nc1cccc(-c2csc(NC(=O)CSc3nc4nccnc4c(=O)n3CCc3ccccc3)n2)c1", "target": "Phosphatidylinositol 4,5-bisphosphate 3-kinase catalytic subunit beta isoform, with p85 alpha (PIK3CB, Homo sapiens, UniProt P42338)", "test": "kinase activity, inhibitor", "setting": "10 µM, with: PIK3R1 complex", "inhibition": "7%"}
{"SMILES": "Cc1ccnc(OC[C@H]2CN(CC(=O)N3CCc4ccccc43)CCO2)c1", "target": "HTR3A", "test": "radioligand binding", "setting": "concentration not given, with: [3H]GR65630", "inhibition": "-10.9%"}
{"SMILES": "O=C(NO)c1ccc(CN2CCCCc3ccccc32)c(F)c1", "target": "Beta-3 adrenergic receptor (ADRB3, Homo sapiens, UniProt P13945)", "test": "radioligand binding, radioligand displacement", "setting": "10 µM", "inhibition": "6.54%"}
{"note": "Some of these lines once more:"}
{"SMILES": "Cc1nn(-c2nc3c(F)cc(F)cc3s2)c(O)c1C(c1ccccc1C(=O)O)c1c(C)nn(-c2nc3c(F)cc(F)cc3s2)c1O", "target": "CGAS catalytic domain; with DNA", "test": "cGAS phase separation, inhibitor", "setting": "10 µM", "inhibition": "101%"}
{"SMILES": "COc1cc(C(=O)NS(=O)(=O)c2ccccc2C)ccc1Cc1cn(C)c2ccc(NC(=O)OC3CCCC3)cc12", "target": "LRRC8A/LRRC8C (Homo sapiens, UniProt Q8IWT6+Q8TDW0, L134K/L136K)", "test": "ion current, whole-cell patch clamp", "system": "HCT LRRC8-/- cells", "setting": "1 µM, +100 mV, L134K/L136K heteromers", "inhibition": "24.3% and 9.21% and 10.1% and 47.3% and 23.4%"}
